# Measurements of several laboratories.
# Parts stem from different laboratories: compare values within a part only. Changes are numbered by the printed parent chain.

# Set 1 — target: UBE2D2 UBC core domain (UniProt P62837); method: yeast two-hybrid; sample: yeast; notes: mostly zero background; reference: not given; direction: higher = stronger interaction
# Chain of UniProt P62837 (whole entry, looked up): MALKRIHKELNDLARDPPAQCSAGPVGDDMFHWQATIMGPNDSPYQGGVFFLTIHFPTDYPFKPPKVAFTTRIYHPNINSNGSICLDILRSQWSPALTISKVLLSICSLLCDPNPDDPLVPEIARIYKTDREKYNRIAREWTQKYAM
# B1: TRIM2 RING domain (UniProt Q9C040); chain VRQIDKQFLICSICLERYKNPKVLPCLHTFCERCLQNYIPAHSLTLSCPVCRQTSILPEKGV
# B2: TRIM47 RING domain (UniProt Q96LD4); chain MDGSGPFSCPICLEPLREPVTLPCGHNFCLACLGALWPHRGASGAGGPGGAARCPLCQEPFPDGLQLR
# B3: CBLL1 RING domain (UniProt Q75N03); chain GEKDDTPVHFCDKCGLPIKIYGRMIPCKHVFCYDCAILHEKKGDKMCPGCSDPVQRIEQCT
# B4: TRIM28 RING domain (UniProt Q13263); chain GAEALELLEHCGVCRERLRPEREPRLLPCLHSACSACLGPAAPAAANSSGDGGAAGDGTVVDCPVCKQQCFSKDIVE
Molecule,lacZ reporter activity
B1 (TRIM2 RING domain),0
FLSKVEETFQCICCQELVFRPITTVCQHNVCKDCLDRSFRAQVFSCPACRYDLGRSYAMQ (UHRF1 RING domain (UniProt Q96T88)),0
B2 (TRIM47 RING domain),0
B3 (CBLL1 RING domain),0
AAQLLEEKLTCAICLGLYQDPVTLPCGHNFCGACIRDWWDRCGKACPECREPFPDGAELR (TRIM65 RING domain (UniProt Q6PJ69)),0
GSEEEEIPFRCFICRQAFQNPVVTKCRHYFCESCALEHFRATPRCYICDQPTGGIFNPA (RNF113B RING domain (UniProt Q8IZP6)),0
B4 (TRIM28 RING domain),0
EIKDYKARLTCPCCNMRKKDAVLTKCFHVFCFECVKTRYDTRQRKCPKCNAAFGANDFHR (RNF20 RING domain (UniProt Q5VTR2)),0
VPADASPDSKCPICLDRFDNVSYLDRCLHKFCFRCVQEWSKNKAECPLCKQPFDSIFHSV (TOPORS RING domain (UniProt Q9NS56)),17900
KITELNPHLMCALCGGYFIDATTIVECLHSFCKTCIVRYLETNKYCPMCDVQVHKTRPLL (PCGF2 RING domain (UniProt P35227)),0

# Set 2 — effect on: peptide-MHC binding; molecule type: peptide; concentration: concentration not given
# Target: HLA class I histocompatibility antigen, A alpha chain, allele A*26:03 (Homo sapiens, UniProt P04439)
Molecule,binding
FRHSVVVPY,inactive
EELKSLFNTV,inactive
SYINRTGTF,inactive
SRWAISHWL,inactive
RQADILRQF,inactive

# Set 3 — method: aptamer microarray, sandwich; molecule type: DNA with 2'F-ANA; sample: in vitro; concentration: 200 nM; added: Cy3 exosite-II aptamer, 400 nM; direction: higher = stronger binding; oligonucleotide: GGTTGGTGTGGTTGG
# Target: Prothrombin, mature alpha-thrombin (F2, Homo sapiens, UniProt P00734)
# Notes: whole 15-mer aptamer, many near background
Modification,mean fluorescence intensity [a.u.]
2'F-ANA at 1 5 12 15,108
2'F-ANA at 2 4 5 6 7 8 13 15,80.8
2'F-ANA at 4 5 8 9 11 12 13,76.2
2'F-ANA at 2 3 6 7 8 9 12 15,1040
2'F-ANA at 1 2 3 4 5 6 7 13 14,49.2
2'F-ANA at 1 2 3 4 9 11 12 13 14,72.1
2'F-ANA at 2 3 6 7 8 11 13 14,409
2'F-ANA at 2 4 6 8 11 12 13,328

# Set 4 — target: CCNE2, cyclin fold, Cln2 fusion (human); method: yeast growth competition, sequencing; sample: yeast; notes: strong parent motif; reference: not given; direction: higher = stronger binding
# Starting sequence: viral docking peptide; KGVKRKLFAEDSS; partner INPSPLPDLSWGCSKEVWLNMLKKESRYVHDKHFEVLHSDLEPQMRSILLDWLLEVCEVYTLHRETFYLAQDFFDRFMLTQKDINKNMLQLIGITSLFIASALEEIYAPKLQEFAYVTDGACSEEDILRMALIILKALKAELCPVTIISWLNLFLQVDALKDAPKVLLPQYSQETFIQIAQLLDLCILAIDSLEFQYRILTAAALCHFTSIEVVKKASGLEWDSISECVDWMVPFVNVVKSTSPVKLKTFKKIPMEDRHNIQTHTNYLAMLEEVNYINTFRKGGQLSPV
Substitution,normalised enrichment score
A9H,6.37
L7G,0.63
K4L,1.15
R5A L7A,0.279
R5S,0.44
S12H,6.47
K6I,5.92
K6H,2.24
E10R,3.39
G2C,6.76
D11P,6.9
D11N,6.14
R5G,-0.158
L7Q,0.44
K6R,7.55
L7M,0.754
L7S,0.324
L7F,1.32

# Repeated from above (set 4):
Substitution,normalised enrichment score
R5S,0.44
S12H,6.47
K6I,5.92
